Measurements from different studies.
Parts stem from different laboratories: compare values within a part only. “And” joins repeats or separate records; there may be more than shown.
UniProt P52333, sequence (whole entry, looked up): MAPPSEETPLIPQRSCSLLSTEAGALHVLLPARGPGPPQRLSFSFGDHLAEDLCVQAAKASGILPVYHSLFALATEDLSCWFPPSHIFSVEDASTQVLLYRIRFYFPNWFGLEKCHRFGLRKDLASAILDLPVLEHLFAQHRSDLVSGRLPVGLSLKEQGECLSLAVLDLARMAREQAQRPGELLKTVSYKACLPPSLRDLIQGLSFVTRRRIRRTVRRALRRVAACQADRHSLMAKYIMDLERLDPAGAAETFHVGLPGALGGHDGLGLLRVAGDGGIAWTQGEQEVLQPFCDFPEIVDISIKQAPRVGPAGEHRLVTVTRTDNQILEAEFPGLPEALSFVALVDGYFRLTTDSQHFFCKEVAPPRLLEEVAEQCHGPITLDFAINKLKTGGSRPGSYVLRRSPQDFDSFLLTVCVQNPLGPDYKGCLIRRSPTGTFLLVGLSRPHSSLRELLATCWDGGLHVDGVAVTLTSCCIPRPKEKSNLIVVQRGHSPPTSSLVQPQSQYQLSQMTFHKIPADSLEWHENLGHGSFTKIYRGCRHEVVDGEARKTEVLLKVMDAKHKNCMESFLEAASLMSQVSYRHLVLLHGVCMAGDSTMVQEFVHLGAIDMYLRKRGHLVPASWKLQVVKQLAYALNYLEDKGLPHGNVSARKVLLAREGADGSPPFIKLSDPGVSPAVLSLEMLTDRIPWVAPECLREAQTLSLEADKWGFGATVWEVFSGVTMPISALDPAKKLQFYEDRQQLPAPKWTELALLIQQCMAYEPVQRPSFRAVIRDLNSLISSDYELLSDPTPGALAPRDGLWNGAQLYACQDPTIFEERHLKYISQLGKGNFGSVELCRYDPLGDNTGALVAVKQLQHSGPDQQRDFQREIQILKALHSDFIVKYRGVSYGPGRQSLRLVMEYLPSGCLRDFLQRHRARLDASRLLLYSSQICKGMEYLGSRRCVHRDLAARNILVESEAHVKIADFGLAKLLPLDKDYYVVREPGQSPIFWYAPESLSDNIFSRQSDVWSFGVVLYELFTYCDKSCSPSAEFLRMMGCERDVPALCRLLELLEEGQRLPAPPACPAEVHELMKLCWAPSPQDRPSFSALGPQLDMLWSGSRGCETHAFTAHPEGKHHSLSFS
UniProt Q9Y6M4, sequence (whole entry, looked up): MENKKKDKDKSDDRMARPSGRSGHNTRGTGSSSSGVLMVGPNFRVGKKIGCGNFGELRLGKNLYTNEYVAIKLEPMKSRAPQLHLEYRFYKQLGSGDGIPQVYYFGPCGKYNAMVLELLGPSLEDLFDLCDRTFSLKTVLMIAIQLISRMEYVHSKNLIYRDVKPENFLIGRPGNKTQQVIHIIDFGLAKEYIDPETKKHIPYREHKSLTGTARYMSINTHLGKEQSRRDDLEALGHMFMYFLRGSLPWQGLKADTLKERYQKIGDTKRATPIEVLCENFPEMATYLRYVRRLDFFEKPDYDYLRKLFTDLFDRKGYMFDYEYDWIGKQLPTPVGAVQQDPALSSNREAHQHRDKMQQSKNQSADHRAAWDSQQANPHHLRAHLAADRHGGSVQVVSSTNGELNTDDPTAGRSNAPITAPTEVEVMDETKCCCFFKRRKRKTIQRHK
UniProt Q9UL54, sequence (whole entry, looked up): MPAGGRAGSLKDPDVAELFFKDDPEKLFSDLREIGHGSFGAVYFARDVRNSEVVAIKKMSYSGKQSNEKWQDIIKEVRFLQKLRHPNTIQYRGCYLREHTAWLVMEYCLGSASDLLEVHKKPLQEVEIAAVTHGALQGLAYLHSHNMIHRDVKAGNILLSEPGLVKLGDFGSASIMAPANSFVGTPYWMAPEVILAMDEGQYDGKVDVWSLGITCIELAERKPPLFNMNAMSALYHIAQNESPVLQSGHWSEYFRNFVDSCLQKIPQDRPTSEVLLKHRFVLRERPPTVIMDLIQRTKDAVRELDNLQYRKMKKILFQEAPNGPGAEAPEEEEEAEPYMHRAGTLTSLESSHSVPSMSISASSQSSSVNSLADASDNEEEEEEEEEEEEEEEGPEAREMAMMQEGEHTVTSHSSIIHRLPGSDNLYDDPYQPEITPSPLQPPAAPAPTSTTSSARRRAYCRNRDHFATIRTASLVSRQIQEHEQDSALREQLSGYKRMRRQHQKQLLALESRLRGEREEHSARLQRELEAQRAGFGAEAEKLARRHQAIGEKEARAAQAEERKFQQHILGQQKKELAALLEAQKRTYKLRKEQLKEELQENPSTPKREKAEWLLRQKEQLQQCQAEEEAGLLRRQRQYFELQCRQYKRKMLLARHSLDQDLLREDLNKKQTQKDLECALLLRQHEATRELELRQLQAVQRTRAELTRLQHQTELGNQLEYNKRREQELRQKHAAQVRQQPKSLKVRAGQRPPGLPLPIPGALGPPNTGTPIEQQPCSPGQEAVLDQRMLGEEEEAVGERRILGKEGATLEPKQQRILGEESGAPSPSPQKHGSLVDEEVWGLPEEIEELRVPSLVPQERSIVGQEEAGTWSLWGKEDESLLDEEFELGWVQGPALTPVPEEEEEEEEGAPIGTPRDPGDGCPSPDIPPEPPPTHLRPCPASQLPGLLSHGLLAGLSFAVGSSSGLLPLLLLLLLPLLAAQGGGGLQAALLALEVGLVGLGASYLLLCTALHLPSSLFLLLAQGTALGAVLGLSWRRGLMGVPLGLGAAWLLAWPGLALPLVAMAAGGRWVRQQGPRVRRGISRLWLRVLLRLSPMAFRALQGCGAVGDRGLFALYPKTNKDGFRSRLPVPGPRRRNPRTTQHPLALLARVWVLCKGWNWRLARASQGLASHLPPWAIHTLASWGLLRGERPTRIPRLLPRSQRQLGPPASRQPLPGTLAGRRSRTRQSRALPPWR
UniProt Q15418, sequence (whole entry, looked up): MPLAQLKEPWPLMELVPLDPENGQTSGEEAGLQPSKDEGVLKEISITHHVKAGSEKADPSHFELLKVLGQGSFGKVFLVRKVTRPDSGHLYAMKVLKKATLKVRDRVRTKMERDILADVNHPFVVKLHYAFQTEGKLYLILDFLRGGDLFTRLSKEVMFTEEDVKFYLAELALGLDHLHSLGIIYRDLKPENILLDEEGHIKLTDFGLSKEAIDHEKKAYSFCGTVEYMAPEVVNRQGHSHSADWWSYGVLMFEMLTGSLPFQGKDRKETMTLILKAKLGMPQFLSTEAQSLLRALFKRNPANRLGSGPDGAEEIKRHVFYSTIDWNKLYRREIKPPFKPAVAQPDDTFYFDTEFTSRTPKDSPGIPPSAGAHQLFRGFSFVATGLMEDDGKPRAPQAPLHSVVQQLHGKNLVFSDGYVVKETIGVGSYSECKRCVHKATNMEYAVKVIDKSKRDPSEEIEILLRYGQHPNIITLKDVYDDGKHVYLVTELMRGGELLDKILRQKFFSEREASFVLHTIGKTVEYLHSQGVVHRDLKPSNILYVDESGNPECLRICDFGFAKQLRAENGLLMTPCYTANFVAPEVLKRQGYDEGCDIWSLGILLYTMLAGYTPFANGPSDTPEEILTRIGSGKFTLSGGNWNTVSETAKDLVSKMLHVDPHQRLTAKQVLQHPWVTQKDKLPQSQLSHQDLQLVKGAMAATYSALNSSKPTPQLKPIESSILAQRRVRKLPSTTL
UniProt Q9BWU1, sequence (whole entry, looked up): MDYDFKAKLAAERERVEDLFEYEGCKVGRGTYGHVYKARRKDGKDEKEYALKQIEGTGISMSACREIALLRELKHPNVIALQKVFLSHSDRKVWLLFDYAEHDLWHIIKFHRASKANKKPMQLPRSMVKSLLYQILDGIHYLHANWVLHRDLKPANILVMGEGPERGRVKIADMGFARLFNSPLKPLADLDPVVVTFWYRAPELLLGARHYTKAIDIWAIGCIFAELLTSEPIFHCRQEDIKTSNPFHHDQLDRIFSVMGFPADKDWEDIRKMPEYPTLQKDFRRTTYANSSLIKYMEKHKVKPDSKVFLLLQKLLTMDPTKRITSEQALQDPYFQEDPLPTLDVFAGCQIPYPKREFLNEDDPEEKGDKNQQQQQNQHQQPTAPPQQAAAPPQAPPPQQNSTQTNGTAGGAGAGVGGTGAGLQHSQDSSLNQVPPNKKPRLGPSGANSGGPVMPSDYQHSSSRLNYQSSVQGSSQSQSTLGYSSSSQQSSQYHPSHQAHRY
UniProt Q96D53, sequence (whole entry, looked up): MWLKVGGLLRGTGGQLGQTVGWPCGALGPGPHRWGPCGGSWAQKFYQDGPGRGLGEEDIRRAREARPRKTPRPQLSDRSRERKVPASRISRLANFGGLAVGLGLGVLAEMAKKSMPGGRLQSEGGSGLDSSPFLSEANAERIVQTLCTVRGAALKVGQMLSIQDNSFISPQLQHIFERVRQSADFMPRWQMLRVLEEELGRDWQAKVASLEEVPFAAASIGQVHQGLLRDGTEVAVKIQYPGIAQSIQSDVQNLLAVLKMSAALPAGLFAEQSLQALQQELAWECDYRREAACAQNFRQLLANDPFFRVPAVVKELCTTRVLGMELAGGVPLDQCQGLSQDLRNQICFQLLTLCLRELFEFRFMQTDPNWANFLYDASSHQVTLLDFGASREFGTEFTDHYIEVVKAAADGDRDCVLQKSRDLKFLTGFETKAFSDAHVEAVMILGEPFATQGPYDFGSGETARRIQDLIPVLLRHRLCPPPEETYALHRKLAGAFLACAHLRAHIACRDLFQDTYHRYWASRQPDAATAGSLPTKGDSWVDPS
UniProt O00141, sequence (whole entry, looked up): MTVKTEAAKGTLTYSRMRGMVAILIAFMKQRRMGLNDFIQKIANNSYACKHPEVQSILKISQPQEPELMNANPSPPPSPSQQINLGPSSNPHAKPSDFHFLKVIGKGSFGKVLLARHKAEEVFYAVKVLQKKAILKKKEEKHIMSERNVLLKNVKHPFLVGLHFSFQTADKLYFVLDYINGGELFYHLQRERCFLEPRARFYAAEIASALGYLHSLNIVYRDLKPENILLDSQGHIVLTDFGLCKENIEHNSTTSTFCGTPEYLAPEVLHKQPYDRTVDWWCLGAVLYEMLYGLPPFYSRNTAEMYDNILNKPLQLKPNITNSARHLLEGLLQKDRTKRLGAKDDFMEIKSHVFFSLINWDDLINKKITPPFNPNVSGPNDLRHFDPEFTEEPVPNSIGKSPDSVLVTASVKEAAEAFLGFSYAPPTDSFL

Block 1 — cell line: mouse MPNST tumor cells; method: high-content nuclear imaging; item: cell number; tested at: 10 µM; time: 12 h; notes: mean of 2 replicates; baseline: plate mean; direction: higher = more cells
Structure (SMILES) | nuclei count
NS(=O)(=O)c1ccc(-n2nc(C(F)(F)F)cc2-c2ccc(Cl)cc2)cc1 | 2.19 z-score
COc1cc(N)c(Cl)cc1C(=O)NC1CCN(CCCOc2ccc(F)cc2)CC1OC (stereo not shown) | 0.253 z-score and 2.51 z-score and -0.142 z-score
O=c1oc2ccccc2c(O)c1Cc1c(O)c2ccccc2oc1=O | 0.127 z-score
CC(C)(C)c1cc(C(=O)C(C#N)=NNc2cccc(Cl)c2)no1 | 2.62 z-score
CC1CCc2c(N3CCC(O)CC3)c(F)cc3c(=O)c(C(=O)O)cn1c23 (stereo not shown) | 0.774 z-score
NC(Cc1cc(I)c(Oc2cc(I)c(O)c(I)c2)c(I)c1)C(=O)O (stereo not shown) | -0.144 z-score
CCOC(=O)CCNc1cc(N2CCc3ccccc3CC2)nc(-c2ccccn2)n1 | -4.4 z-score
CCc1cccc(CC)c1NC(=O)CN(CC(=O)O)CC(=O)O | 1.01 z-score

Block 2 — tested at: 0.1 µM
SMILES: Nc1c(C(=O)NCc2ccc(C(=O)NCCCC3CCCCC3)cc2)cnn1-c1ccccc1
target | assay | remaining binding [%]
Atypical kinase COQ8B, mitochondrial (COQ8B, Homo sapiens, UniProt Q96D53) | cell-free assay, competition with immobilised ligand | 100
Megakaryocyte-associated tyrosine-protein kinase (MATK, Homo sapiens, UniProt P42679) | cell-free assay, competition with immobilised ligand | 100
Cyclin-dependent kinase 19 (CDK19, Homo sapiens, UniProt Q9BWU1) | competition binding | 99
Ribosomal protein S6 kinase alpha-1, N-terminal kinase domain (RPS6KA1, Homo sapiens, UniProt Q15418) | cell-free assay, competition with immobilised ligand | 100
Serine/threonine-protein kinase Sgk1 (SGK1, Homo sapiens, UniProt O00141) | cell-free assay, competition with immobilised ligand | 100
Serine/threonine-protein kinase 36 (STK36, Homo sapiens, UniProt Q9NRP7) | cell-free assay, competition with immobilised ligand | 100

Block 3 — read-out: enzyme activity; action: inhibitor; tested at: 0.5 µM
Structure (SMILES): O=c1c2ccccc2[nH]c(=S)n1CCN1CCC(=C(c2ccc(F)cc2)c2ccc(F)cc2)CC1
target | how to read | remaining activity
Casein kinase I isoform gamma-3 (CSNK1G3, Homo sapiens, UniProt Q9Y6M4) | baseline: control | 97.1%
Activin receptor type-1B (ACVR1B, Homo sapiens, UniProt P36896) | baseline: control | 103%
Serine/threonine-protein kinase TAO2 (TAOK2, Homo sapiens, UniProt Q9UL54) | baseline: control | 109%
Cytoplasmic tyrosine-protein kinase BMX (BMX, Homo sapiens, UniProt P51813) | – | 85.5%
MAP kinase-activated protein kinase 2 (MAPKAPK2, Homo sapiens, UniProt P49137) | baseline: control | 106%
Serine/threonine-protein kinase Nek6 (NEK6, Homo sapiens, UniProt Q9HC98) | baseline: control | 96.2%
Rhodopsin kinase GRK7 (GRK7, Homo sapiens, UniProt Q8WTQ7) | baseline: control | 111%
Mitogen-activated protein kinase kinase kinase 5 (MAP3K5, Homo sapiens, UniProt Q99683) | baseline: control | 98.1%
Fibroblast growth factor receptor 3 (FGFR3, Homo sapiens, UniProt P22607) | baseline: control | 99.3%
Serine/threonine-protein kinase Nek1 (NEK1, Homo sapiens, UniProt Q96PY6) | baseline: control | 109%
Tyrosine-protein kinase JAK3 (JAK3, Homo sapiens, UniProt P52333) | baseline: control | 104%
Fibroblast growth factor receptor 1 (FGFR1, Homo sapiens, UniProt P11362) | baseline: control | 105%

Block 4 — species: mouse; matrix: microsomes or S9; tested at: 2 µM; time: 0.5 h
SMILES | remaining compound
COc1ccc(CC(=O)O)cc1Nc1ncc(Cl)c(Nc2ccccc2S(=O)(=O)C(C)C)n1 | 0.968%
O=C(c1c(OCC2CC2)cc(=O)n2c1CCOCC2)N1CCN(c2ccccc2F)CC1 | 20.2%
O=c1[nH]nc(CNS(=O)(=O)c2cc(Cl)sc2Cl)[nH]1 | 4.86%
O=C(Nc1nnc(Cc2ccc3c(c2)OCO3)o1)c1cc2ccccc2o1 | 0.345%
CC(C)c1nc(NCCc2nnc3ccccn23)nc(N(C)C)n1 | 0.161%
COc1ccc(C2=NN(c3nc4ccccc4s3)C(=O)C2)cc1 | 32.1%
CCCC1(Cn2ccnc2-c2nccn2C)CCC1 | 0.152%
CCN1C(=O)C2(CC(=O)Nc3c2cnn3-c2ccccc2Cl)c2cccc(C)c21 (stereo not shown) | 0%
